Measurements pooled from the literature.
Each numbered part is a random draw from the data of one study; scales do not carry over between parts.
Chain of UniProt P78362 (whole entry, looked up): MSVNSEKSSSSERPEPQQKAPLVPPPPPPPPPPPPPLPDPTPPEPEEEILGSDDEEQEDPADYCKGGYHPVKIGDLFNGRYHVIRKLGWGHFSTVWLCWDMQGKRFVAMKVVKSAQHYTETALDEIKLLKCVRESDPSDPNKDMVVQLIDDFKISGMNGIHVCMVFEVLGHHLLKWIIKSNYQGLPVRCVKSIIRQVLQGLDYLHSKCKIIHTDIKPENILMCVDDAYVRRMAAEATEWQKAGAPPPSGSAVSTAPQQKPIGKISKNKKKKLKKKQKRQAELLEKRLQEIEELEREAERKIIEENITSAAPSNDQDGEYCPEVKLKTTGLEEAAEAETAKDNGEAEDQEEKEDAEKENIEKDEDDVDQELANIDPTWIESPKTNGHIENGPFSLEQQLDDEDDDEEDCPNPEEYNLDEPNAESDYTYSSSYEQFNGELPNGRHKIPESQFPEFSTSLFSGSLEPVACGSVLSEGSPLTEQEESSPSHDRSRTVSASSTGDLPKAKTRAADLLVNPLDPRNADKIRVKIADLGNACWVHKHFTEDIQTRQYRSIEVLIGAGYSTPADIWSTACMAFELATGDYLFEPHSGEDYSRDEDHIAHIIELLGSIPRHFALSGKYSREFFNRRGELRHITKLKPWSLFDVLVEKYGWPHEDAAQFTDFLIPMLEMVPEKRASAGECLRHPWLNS
Chain of UniProt Q04912 (whole entry, looked up): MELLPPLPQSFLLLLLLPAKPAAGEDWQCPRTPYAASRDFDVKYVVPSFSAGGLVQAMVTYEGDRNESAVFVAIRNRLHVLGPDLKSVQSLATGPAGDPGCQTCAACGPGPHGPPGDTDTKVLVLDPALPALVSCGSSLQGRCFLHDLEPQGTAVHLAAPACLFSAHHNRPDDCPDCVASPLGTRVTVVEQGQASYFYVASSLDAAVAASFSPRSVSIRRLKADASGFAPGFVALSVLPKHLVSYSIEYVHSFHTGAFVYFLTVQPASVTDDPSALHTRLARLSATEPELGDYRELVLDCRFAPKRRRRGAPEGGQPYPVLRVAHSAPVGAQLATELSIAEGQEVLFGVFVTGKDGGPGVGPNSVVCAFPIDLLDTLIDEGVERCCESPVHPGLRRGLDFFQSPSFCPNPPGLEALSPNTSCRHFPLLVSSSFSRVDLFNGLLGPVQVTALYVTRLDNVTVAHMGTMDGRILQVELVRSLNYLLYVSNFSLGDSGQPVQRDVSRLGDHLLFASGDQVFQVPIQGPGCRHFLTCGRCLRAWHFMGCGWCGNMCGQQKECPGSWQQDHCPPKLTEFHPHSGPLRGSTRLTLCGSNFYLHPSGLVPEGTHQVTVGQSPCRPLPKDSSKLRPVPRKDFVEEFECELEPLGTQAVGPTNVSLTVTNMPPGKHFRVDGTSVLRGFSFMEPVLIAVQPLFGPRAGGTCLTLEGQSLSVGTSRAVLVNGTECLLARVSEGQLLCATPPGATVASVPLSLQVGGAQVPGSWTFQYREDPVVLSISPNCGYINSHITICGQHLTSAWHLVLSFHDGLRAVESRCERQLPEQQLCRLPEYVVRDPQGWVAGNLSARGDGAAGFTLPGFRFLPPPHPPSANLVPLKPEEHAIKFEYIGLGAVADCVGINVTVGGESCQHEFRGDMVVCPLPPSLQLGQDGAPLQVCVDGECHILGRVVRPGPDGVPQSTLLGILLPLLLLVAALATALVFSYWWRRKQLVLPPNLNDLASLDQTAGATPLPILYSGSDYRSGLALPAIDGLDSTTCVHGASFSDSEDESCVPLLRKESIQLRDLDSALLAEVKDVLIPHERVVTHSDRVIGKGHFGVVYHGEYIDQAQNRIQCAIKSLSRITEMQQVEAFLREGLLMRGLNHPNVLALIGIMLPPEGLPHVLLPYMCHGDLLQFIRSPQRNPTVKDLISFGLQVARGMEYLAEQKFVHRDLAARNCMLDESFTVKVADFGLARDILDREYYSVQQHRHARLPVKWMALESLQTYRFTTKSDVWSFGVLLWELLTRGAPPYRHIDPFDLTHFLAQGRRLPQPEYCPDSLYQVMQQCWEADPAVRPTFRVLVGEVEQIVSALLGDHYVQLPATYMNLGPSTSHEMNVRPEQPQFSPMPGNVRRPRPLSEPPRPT
Chain of UniProt O43318 (whole entry, looked up): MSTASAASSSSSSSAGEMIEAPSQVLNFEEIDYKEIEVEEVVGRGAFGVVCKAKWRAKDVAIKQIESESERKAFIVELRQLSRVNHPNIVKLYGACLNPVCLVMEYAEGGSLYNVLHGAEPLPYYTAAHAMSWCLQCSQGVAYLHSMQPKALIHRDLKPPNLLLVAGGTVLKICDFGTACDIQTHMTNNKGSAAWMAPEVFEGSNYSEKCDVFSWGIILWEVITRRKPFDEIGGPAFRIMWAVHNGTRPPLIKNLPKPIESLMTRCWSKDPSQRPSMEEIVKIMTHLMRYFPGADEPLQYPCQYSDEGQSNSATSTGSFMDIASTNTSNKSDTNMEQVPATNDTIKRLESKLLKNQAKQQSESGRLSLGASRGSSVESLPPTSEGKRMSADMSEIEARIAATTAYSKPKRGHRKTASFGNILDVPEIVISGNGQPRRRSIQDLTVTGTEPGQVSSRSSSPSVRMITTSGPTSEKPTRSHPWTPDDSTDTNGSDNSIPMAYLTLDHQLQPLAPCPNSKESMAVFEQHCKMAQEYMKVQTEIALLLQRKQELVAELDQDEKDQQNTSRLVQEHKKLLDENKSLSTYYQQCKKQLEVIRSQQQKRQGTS
Chain of UniProt Q99755 (whole entry, looked up): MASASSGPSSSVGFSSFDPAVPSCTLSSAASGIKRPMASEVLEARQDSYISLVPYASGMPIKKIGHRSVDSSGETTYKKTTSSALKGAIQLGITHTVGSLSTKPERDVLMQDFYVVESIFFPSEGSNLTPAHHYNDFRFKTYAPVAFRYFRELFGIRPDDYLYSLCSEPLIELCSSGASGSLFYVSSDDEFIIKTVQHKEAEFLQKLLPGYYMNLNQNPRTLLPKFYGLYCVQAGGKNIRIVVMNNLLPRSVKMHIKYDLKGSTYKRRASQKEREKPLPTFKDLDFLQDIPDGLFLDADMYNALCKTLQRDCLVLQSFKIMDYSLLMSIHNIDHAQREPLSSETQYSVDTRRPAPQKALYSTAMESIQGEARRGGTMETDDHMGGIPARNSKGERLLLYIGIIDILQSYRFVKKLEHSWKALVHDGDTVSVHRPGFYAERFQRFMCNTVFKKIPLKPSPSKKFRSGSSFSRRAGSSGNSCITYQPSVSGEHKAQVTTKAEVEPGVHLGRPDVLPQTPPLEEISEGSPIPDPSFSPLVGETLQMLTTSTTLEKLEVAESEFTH
Chain of UniProt Q92630 (whole entry, looked up): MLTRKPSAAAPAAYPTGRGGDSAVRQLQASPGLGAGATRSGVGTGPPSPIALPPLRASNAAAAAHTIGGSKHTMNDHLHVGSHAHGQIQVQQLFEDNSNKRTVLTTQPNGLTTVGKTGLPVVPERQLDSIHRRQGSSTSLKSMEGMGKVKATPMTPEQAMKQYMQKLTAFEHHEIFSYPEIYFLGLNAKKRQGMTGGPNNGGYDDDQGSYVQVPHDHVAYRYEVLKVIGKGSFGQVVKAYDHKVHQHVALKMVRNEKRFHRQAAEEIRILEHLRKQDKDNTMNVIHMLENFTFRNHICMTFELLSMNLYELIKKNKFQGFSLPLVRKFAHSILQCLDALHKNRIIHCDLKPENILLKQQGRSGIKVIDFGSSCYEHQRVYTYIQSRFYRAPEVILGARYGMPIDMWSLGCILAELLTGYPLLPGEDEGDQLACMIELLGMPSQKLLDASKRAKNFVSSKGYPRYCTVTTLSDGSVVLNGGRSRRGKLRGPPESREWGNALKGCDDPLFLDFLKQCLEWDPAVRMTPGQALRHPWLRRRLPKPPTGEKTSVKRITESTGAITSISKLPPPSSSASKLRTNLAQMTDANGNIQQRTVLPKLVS
Chain of UniProt Q04771 (whole entry, looked up): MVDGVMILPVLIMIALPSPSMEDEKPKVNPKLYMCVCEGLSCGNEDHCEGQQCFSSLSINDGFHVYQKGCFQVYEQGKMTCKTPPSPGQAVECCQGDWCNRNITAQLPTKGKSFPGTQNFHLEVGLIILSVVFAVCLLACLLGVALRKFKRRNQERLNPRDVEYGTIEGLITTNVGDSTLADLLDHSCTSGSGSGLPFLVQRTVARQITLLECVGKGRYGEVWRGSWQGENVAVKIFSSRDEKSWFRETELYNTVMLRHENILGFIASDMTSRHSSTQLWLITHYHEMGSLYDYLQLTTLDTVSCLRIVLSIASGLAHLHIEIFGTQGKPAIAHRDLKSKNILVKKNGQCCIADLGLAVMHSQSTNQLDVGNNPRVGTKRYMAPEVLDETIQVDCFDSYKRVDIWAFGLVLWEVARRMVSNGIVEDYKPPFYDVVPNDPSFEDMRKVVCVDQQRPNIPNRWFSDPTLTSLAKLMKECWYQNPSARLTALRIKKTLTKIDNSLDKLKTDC

Study 1 — sample: EL4 tumour; dose: dose not given; reference: vehicle
Structure (SMILES): CC(=O)N[C@@H](Cc1c[nH]c2ccccc12)C(=O)N[C@@H](CCC(=O)C=[N+]=[N-])C(=O)OC(C)C
| method | measured | host | log2 fold change |
| --- | --- | --- | --- |
|  | dCMP | mouse, EL4 tumour-bearing | 0.526 |
|  | 4-hydroxyphenylpyruvate | mouse, EL4 tumour-bearing | 1.37 |
|  | adenosine | mouse, EL4 tumour-bearing | -0.693 |
|  | oxidized glutathione | Mus musculus | -0.269 |
|  | 4-guanidinobutanoate | mouse, EL4 tumour-bearing | 0.0497 |
| metabolomics | 5-methyluridine | mouse | -0.538 |
|  | dihydroxyacetone phosphate | Mus musculus | 0.359 |
|  | pyrraline | mouse, EL4 tumour-bearing | -1.01 |
|  | xanthosine | mouse, EL4 tumour-bearing | 0.445 |

Study 2 — method: competition with immobilised ligand; concentration: 0.1 µM
SMILES: C[C@H](c1ccnc(Nc2nc3ccc(-c4cc(N(C)C)ncn4)cc3[nH]2)c1)N1CCN(C(=O)CC(F)(F)F)CC1
| target | effect on | remaining binding [%] |
| --- | --- | --- |
| Activin receptor type-1 (ACVR1, Homo sapiens, UniProt Q04771) | cell-free assay | 100 |
| Phosphatidylinositol 4-phosphate 5-kinase type-1 alpha (PIP5K1A, Homo sapiens, UniProt Q99755) | cell-free assay | 100 |
| Dual specificity tyrosine-phosphorylation-regulated kinase 2 (DYRK2, Homo sapiens, UniProt Q92630) | cell-free assay | 87 |
| Macrophage-stimulating protein receptor (MST1R, Homo sapiens, UniProt Q04912) | cell-free assay | 80 |
| Tyrosine-protein kinase ABL1, non-phosphorylated (ABL1, Homo sapiens, UniProt P00519, F317I) | binding | 100 |
| Serine/threonine-protein kinase B-raf (BRAF, Homo sapiens, UniProt P15056) | cell-free assay | 100 |
| Receptor-type tyrosine-protein kinase FLT3 (FLT3, Homo sapiens, UniProt P36888, N841I) | cell-free assay | 43 |
| SRSF protein kinase 2 (SRPK2, Homo sapiens, UniProt P78362) | cell-free assay | 100 |
| BDNF/NT-3 growth factors receptor (NTRK2, Homo sapiens, UniProt Q16620) | cell-free assay | 100 |
| Phosphatidylinositol 4-phosphate 5-kinase type-1 gamma (PIP5K1C, Homo sapiens, UniProt O60331) | cell-free assay | 89 |
| Mitogen-activated protein kinase kinase kinase 7 (MAP3K7, Homo sapiens, UniProt O43318) | cell-free assay | 85 |
| Mitogen-activated protein kinase kinase kinase 19 (MAP3K19, Homo sapiens, UniProt Q56UN5) | binding | 10 |
| Phosphatidylinositol 3-kinase C2 domain-containing subunit gamma (PIK3C2G, Homo sapiens, UniProt O75747) | cell-free assay | 94 |
| Phosphatidylinositol 3-kinase catalytic subunit type 3 (PIK3C3, Homo sapiens, UniProt Q8NEB9) | cell-free assay | 100 |
| Tyrosine-protein kinase Fes/Fps (FES, Homo sapiens, UniProt P07332) | cell-free assay | 75 |

Study 3 — target: His6 tag; method: AlphaScreen counter screen; concentration: concentration not given
| SMILES | inhibition |
| --- | --- |
| COc1cc2c(Nc3ccc(Br)cc3F)ncnc2cc1OCC1CCN(C)CC1 | 3.7% |
| N=C(N)NCCNS(=O)(=O)c1cccc2cnccc12 | 7.05% |
| COc1cc2ncn(-c3cc(OCc4ccccc4C(F)(F)F)c(C(N)=O)s3)c2cc1OC | -4.65% |
| CCN(CCN(C)C)Cc1c(-c2ccc(F)cc2)[nH]c2ncccc12 | 5% |
| Nc1nc(Nc2ccc(S(N)(=O)=O)cc2)nn1C(=O)c1c(F)cccc1F | 5.15% |
| Cc1c(C(=O)Nc2ccccc2)sc2nc[nH]c(=O)c12 | 8.35% |
| O=CNc1cccc2c1sc1nc[nH]c(=O)c12 | 7.25% |
| CCOc1c(Br)ccc2c1sc1nc[nH]c(=O)c12 | 6.45% |
| CCOc1ccccc1C(=O)Nc1ccc2[nH]ncc2c1 | 8.3% |
| COc1cccc(-c2cc(=O)c3ccccc3o2)c1N | -8.3% |
| C#Cc1cccc(Nc2ncnc3cc4c(cc23)OCCOCCOCCO4)c1 | 5.25% |
| COc1ccccc1OCC(=O)NNC(=O)c1ccc(Cl)cc1 | 3.35% |
| O=C1NC(=O)C(=Cc2ccc3c(c2)OC(F)(F)O3)S1 | -0.15% |
| Cc1c(C(=O)OC(C)C)sc2nc[nH]c(=O)c12 | 4.65% |

Study 4 — effect on: enzyme activity; action: inhibitor; concentration: 0.5 µM; reference: control
Target: Interleukin-1 receptor-associated kinase 1 (IRAK1, Homo sapiens, UniProt P51617)
Chain of UniProt P51617 (whole entry, looked up): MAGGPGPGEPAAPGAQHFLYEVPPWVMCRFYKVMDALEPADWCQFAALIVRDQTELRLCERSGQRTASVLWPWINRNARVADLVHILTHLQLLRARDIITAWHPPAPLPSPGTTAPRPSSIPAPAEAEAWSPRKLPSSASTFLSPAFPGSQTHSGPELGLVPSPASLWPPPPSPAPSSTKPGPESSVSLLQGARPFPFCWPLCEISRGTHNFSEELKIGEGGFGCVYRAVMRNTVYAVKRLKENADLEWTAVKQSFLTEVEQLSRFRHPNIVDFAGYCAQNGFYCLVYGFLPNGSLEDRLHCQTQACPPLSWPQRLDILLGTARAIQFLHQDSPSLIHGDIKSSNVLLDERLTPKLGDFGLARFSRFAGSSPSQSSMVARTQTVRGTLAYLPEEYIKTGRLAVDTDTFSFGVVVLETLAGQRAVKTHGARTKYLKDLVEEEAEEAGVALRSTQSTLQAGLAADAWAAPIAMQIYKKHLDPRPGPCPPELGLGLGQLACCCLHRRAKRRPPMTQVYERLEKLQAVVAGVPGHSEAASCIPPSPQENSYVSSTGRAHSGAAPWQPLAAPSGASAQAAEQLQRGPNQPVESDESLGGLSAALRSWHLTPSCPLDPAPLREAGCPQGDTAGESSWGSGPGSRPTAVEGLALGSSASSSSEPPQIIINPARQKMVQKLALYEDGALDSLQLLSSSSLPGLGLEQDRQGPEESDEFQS
| Compound | remaining activity [%] |
| --- | --- |
| COc1cc2c(cc1OC)-c1[nH]nc(Nc3cccc(F)c3)c1C2 | 97.8 |
| O=C1C(Cl)=C(N2C(=O)CCC2=O)C(=O)c2ccccc21 | 101 |
| O=C(NC(NC(=S)Nc1ccc(F)c([N+](=O)[O-])c1)C(Cl)(Cl)Cl)C(c1ccccc1)c1ccccc1 (stereo not drawn) | 107 |
| Ic1cccc(CSc2nnc(-c3ccncc3)o2)c1 | 121 |
| CN([C@@H](Cc1ccc(OS(=O)(=O)c2cccc3cnccc23)cc1)C(=O)N1CCN(c2ccccc2)CC1)S(=O)(=O)c1cccc2cnccc12 | 95.4 |
| COc1cc2ncnc(Nc3ccc(O)c(Br)c3)c2cc1OC | 75.5 |
| N#Cc1c(NC(=O)c2cccc3ccccc23)sc2c1CCCC2 | 104 |
| O=c1cc(-c2cccc3c2Sc2ccccc2S3)oc(N2CCOCC2)c1 | 103 |
| O=C(Nc1cccc(Nc2nccc(Nc3cccc(C(F)(F)F)c3)n2)c1)C1CC1 | 96.4 |
| CCN(CC)CCNC(=O)c1c(C)[nH]c(/C=C2\C(=O)Nc3ccc(Cl)cc32)c1C | 14.1 |
| COc1cc2ncnc(Nc3cccc(Cl)c3)c2cc1OC | 86.6 |
| O=C1c2ccccc2-c2n[nH]c3cccc1c23 | 72.4 |
| C[C@@H]1CCN(C(=O)CC#N)C[C@@H]1N(C)c1ncnc2[nH]ccc12 | 93.9 |
| c1ccc(-c2cnc(Nc3ccc(OCCN4CCCC4)cc3)s2)cc1 | 109 |
| Nc1cccc(-c2cc3c(Oc4cccc(O)c4)ncnc3[nH]2)c1 | 91.4 |
| Cc1cn(-c2cc(NC(=O)c3ccc(C)c(Nc4nccc(-c5cccnc5)n4)c3)cc(C(F)(F)F)c2)cn1 | 93.3 |
| CCN(CC)CCNC(=O)c1c(C)[nH]c(/C=C2\C(=O)Nc3ccc(F)cc32)c1C | 31.4 |
| Cn1nc2c3c(cccc31)C(=O)c1ccccc1-2 | 99.6 |
| CN(C)C[C@H]1CCn2c(c(C3=C(c4cn(C)c5ccccc45)C(=O)NC3=O)c3ccccc32)C1 | 127 |
| Cc1nc2cc3nc(-c4cccs4)cnc3cc2n1C | 113 |
| c1ccc(-c2[nH]ncc2-c2ccnc3ccccc23)nc1 | 124 |
| CCOc1nc(NC(=O)Cc2cc(OC)ccc2OC)cc(N)c1C#N | 100 |
| N#C/C(=C\c1ccc(O)c(O)c1)C(=O)NCc1ccccc1 | 154 |
| CCN(CC)C(=O)c1ccc(Nc2nc(OCC3CCCCC3)c3[nH]cnc3n2)cc1 | 93.8 |
| Cc1cc2ncc(-c3ccccc3)nc2cc1C | 114 |

Repeated from above (study 1):
| method | measured | host | log2 fold change |
| --- | --- | --- | --- |
|  | 4-hydroxyphenylpyruvate | mouse, EL4 tumour-bearing | 1.37 |
|  | adenosine | mouse, EL4 tumour-bearing | -0.693 |
|  | oxidized glutathione | Mus musculus | -0.269 |
|  | 4-guanidinobutanoate | mouse, EL4 tumour-bearing | 0.0497 |
| metabolomics | 5-methyluridine | mouse | -0.538 |
|  | dihydroxyacetone phosphate | Mus musculus | 0.359 |
|  | pyrraline | mouse, EL4 tumour-bearing | -1.01 |
|  | xanthosine | mouse, EL4 tumour-bearing | 0.445 |
